Experimental data collected from several papers.
Lines come from different studies, so protocols differ. “And” joins repeats or separate records; there may be more than shown. Numbers after ± are the reported error.

Cc1ccc([C@@H]2O[C@H](CO)[C@@H](O)[C@H](O)[C@H]2O)cc1Cc1ccc(-c2ccc(F)cc2)s1 — urinary potassium excretion change (Japanese type 2 diabetes patients; 25 mg, day 1, 24 h urine collection; relative to: baseline): 4.28 mEq
CCN1/C(=C/C(C)=O)Sc2ccc(F)cc21 — PR interval (cynomolgus monkey; oral, 100 mg/kg, 24 h post-dose): 87 ± 5 ms
CC(C)NCC(O)c1ccc(NS(C)(=O)=O)cc1 (racemic) — mean blood pressure (male Hartley guinea pigs, anaesthetized; intravenous, 3 mg/kg group, baseline before infusion): 34 ± 0.2 mmHg
CN(C(=O)n1cnc(-c2ccc[n+]([O-])c2)c1)[C@H]1CC[C@H](O)CC1 — tissue concentration (rat, cortex; oral, 10 mg/kg daily for 5 days, 72 h): 8.7 ± 0.3 ng/g
CC(C)Nc1ccnc(Nc2ccccc2-c2ccccc2)n1 — Papp (A to B) (MDCKII-WT cells; 10 µM, pH 7.4): 17.2 ± 2.16 ×10⁻⁶ cm/s
CN(CCC(=O)O)C(=O)c1ccc2c(c1)CC[C@@H]1[C@@H]2CC[C@]2(C)C(c3cncc(F)c3)=CC[C@@H]12 — total bilirubin (premenopausal women, endometriosis pain, serum; 60 mg twice daily, visit 6, median): 0.9 mg/dL
Cc1cc(-c2nccc3c2ccn3CC(=O)Nc2ccc(-c3cnccn3)cn2)ccn1 — subjects with Dysgeusia adverse event (human; 20 mg once daily, multiple ascending dose): 11.1%
Cc1nc(C(=O)NCC(=O)O)c(O)c2ccc(Oc3ccccc3)cc12 — pKa (basic): < 2
Cc1cc(Nc2cc3ncccc3c(N[C@@H]3C[C@H]4CC[C@@H](C3)N4CCC#N)n2)n[nH]1 — pruritus incidence (healthy human subjects; oral, 300 mg, 2 weeks, single ascending dose): 0%
CCCCC[C@H](O)CC[C@@H]1[C@H]2Cc3cccc(OCC(=O)O)c3C[C@H]2C[C@H]1O — geometric mean AUC(0-last) (LC-MS/MS; Japanese CTD-associated PAH patients, plasma; inhaled, 54 µg): 0.58 ng·h/mL
CCC(CC)C(=O)Oc1cccc(C(O)CCN)c1.O=CO (centres unmarked) — ERG b-wave amplitude (scotopic ERG; BALB/cJ mice; intraperitoneal, 10 mg/kg, 1 h dark adaptation, added: 10,000 lx photobleach, 10 min): 20 µV and 33 µV and 34 µV and 11 µV and 47 µV
COc1ccc2[nH]c([S+]([O-])Cc3ncc(C)c(OC)c3C)nc2c1 (centres unmarked) — t1/2 (healthy Chinese volunteers, CYP2C19 poor metabolizers; oral, 20 mg, fasted): 2.25 ± 0.49 h
COc1ccc(C[C@@H](C)[C@@H](C)Cc2ccc(OC)c(OC)c2)cc1OC — Tmax (beagle dog male, plasma; oral, 100 mg/kg/day, day 28, median): 1 h
COc1ccc([C@@H](O)c2cc(-c3ncnc4cc(N5CCOCC5)ccc34)c(F)cc2Cl)nn1 — metabolism nutrition disorder TEAE (locally advanced rectal cancer patients; 100 mg, added: capecitabine and radiotherapy): 67%
Cc1ccc(Sc2ccccc2N2CCNCC2)c(C)c1 — participants with TEAE (measured: metrorrhagia; healthy adult men; oral, 10 mg daily, 12 days): 0%
O=C(N[C@H](Cc1c[nH]c2ccccc12)C(=O)Nc1ccncc1)c1ccc(N2CCN(c3ccc(F)cc3F)CC2)cc1F — concentration (Swiss Webster mouse, female, fat; oral, 50 mg/kg, 2 h, 20% HPβCD vehicle): 120 nM
COc1cc2[nH]c(C)c(-c3ccccc3)c(=O)c2cc1Cl — Papp (PAMPA; pH 7.4): 48 ×10⁻⁶ cm/s
Cn1c(C(F)(F)F)cc(=O)n(-c2cc(Oc3cccnc3OCC(=O)O)c(Cl)cc2F)c1=O — Cmax (beagle dog, female, plasma; oral capsule, 1000 mg/kg/day epyrifenacil, day 1, 90-day study): 13100 ng/mL
CC1(C)C(/C=C/C=C/C=C2/N(CCCCCC(=O)NCCC(=O)N3Cc4ccccc4C#Cc4ccccc43)c3ccc(S(=O)(=O)O)cc3C2(C)C)=[N+](CCCS(=O)(=O)[O-])c2ccc(S(=O)(=O)O)cc21 — retention time (C57BL/6 mouse, azido-sugar treated, RBC membrane; intravenous, single dose): > 5 weeks
CCOC(=O)/C(C#N)=C(\O)c1ccc(NC(=O)c2cccs2)cc1 — maximum haemolysis (sheep erythrocytes; 1 h, pH 7.5): 7.04%
Nc1nc2c(nc([N+](=O)[O-])n2[C@@H]2O[C@H](CO)[C@@H](O)[C@H]2O)c(=O)[nH]1 — nucleoside remaining fraction (depurination, RP-HPLC; citrate-phosphate buffer 0.5 mM; 110 min, pH 2, 37 °C): 0.8
CCCCCCOC(=O)NC(=N)c1ccc(NCc2nc3cc(C(=O)N(CCC(=O)OCC)c4ccccn4)ccc3n2C)cc1 — participants with TEAE oropharyngeal pain (human; oral, 75 mg, compound alone): 0%
COc1c(OCCCN2CCOCC2=O)ccc2c3n(c(=NC(=O)c4cnc(N)nc4)nc12)CCN3 — tlast (patients with advanced malignancies, plasma; 0.8 mg/kg copanlisib, median, cycle 1 day 1, added: gemcitabine): 49.3 h
Cc1nc2cccc(OCC(C)(C)C(=O)NC(C)C)c2c(N)c1C(=O)O — micronucleated PCE per 14000 PCE (male Swiss albino CD-1 mouse, bone marrow; oral, 2000 mg/kg, 36 h): 8
Cc1c(C(=O)O)ccc2c3n(nc12)[C@@H]1[C@H](C3)N(CC2CC2)[C@@]2(C(=O)Nc3cc(Cl)ccc32)[C@H]1c1cccc(Cl)c1F — adverse event incidence (phase Ia trial, measured: Anemia; cancer patients; oral, dose not given): 28%
O=C(Nc1cnccc1Cl)N1CCN(Cc2ccc3c(c2)OC(F)(F)O3)CC1 — adverse event incidence (measured: Haematoma; human healthy young men; 75 mg, multiple dose): 0%
C[C@@H]1COCCN1c1cc(C2([S@](C)(=N)=O)CC2)nc(-c2cc[nH]c3nccc2-3)n1 — Anemia incidence (Japanese advanced solid tumour patients; oral, 240 mg twice daily, CTCAE grade ≥3): 0%
O=C(Nc1nc2cccc(-c3ccc(CN4CCS(=O)(=O)CC4)cc3)n2n1)C1CC1 — patients with skin disorders (rheumatoid arthritis patients; oral, 100 mg twice daily, 4 weeks, regardless of relatedness): 0%
CN1C(=O)[C@@H](NC(=O)c2nnc(Cc3ccccc3)[nH]2)COc2cccnc21 — participants with any AE of special interest (phase I multiple ascending dose; human, male and female; oral, 50 mg, 14 days): 12.5%
CN(C)C(=N)N=C(N)N — subjects with adverse event (measured: headache; healthy men; oral, dose not given, 8 days, treatment-emergent, crossover trial): 9.1%
C[C@@H](N)C1CCN(S(=O)(=O)c2cccc3cnccc23)CC1 — TEAE incidence (healthy volunteers; dose not given, fasted,, all doses): 37.5%
C[C@@H](O)CCOC(=O)C[C@@H](C)O — mean arterial pressure (human; oral drink, dose not given, 30 min post dose, mean): 83 mmHg
CNCCOC12CC3(C)CC(C)(CC(Cn4ncc(-c5ccc(N6CCc7cccc(C(=O)Nc8nc9ccccc9s8)c7C6)nc5C(=O)O)c4C)(C3)C1)C2 — QTcV interval change (beagle dog, male, anaesthetised; intravenous bolus, 0.03 mg/kg, 45 min; relative to: baseline): 12 ms
CC(C)(C(=O)N1CCOc2c(C#N)cncc2C1)C(F)F — subjects with adverse event (measured: skin abrasion; human; oral, 20 mg twice daily, 14 days, multiple ascending dose): 0%
COc1nc(-c2cc(C)c(N[C@@H](C)c3cc(F)cc(F)c3)nn2)ccc1-n1cnc(C)c1 — concentration (rat Sprague-Dawley male, plasma; oral, 50 mg/kg daily for 9 days, 4 h after dose): 23700 ng/mL
Oc1ccc(/C=C/c2cc(O)cc(O)c2)cc1 — leucine aminopeptidase (rat, azoxymethane-injected, blood at sacrifice; 10 mg/kg): 46 IU/L and 45 IU/L and 44 IU/L
CNC(=O)c1ccc(-c2cnc3ncc(Cc4ccc5ncccc5c4)n3n2)cc1F — patients with adverse event (measured: Dyspepsia, all grades; gastric cancer patients; oral, 600 mg twice daily, expansion cohort, any causality): 11%
FC(F)(F)c1ccc(CNc2ccc(Cc3c[nH]c4ncc(Cl)cc34)cn2)cn1 — treatment-related adverse events (measured: Dysgeusia; patients with advanced solid tumours, non-TGCT cohort; oral, 1000 mg/day, any grade): 12%
CO[C@H]1C[C@@H]2CC[C@@H](C)[C@@](O)(O2)C(=O)C(=O)N2CCCC[C@H]2C(=O)O[C@H]([C@H](C)C[C@@H]2CC[C@@H](OC(=O)NCCOCCOCCOCCOCCOCCOCCOCCOCCC(=O)N3CCc4cc(Cn5nc(-c6ccc7oc(N)nc7c6)c6c(N)ncnc65)ccc4C3)[C@H](OC)C2)C[C@@H](O)[C@H](C)/C=C(\C)[C@@H](O)[C@@H](OC)C(=O)[C@H](C)C[C@H](C)/C=C/C=C/C=C/1C — unbound Cmax (mice, plasma; intraperitoneal, 3 mg/kg, weekly dosing): 3.7 to 14.7 nM
COc1cc2c3c(n(CCCN4CCOCC4)c(=O)c2cc1OC)-c1cc2c(cc1C3=O)OCO2 — Cmax (beagle dog, female, plasma; intravenous infusion, 430 mg/m^2, 1 h infusion): 2120 ng/mL and 1020 ng/mL
CCO[C@H]1CCN(Cc2c(OC)cc(C)c3[nH]ccc23)[C@H](c2ccc(C(=O)O)cc2)C1 — unbound Cmax (human mild hepatic impairment, plasma; oral, 200 mg single dose, median): 922 ng/mL
CN(CC#N)C(=O)C[C@H](Nc1nc2ccccc2[nH]1)c1cccc(C(F)(F)F)c1 — apparent volume of distribution (human; intravenous infusion, 3 mg/kg, 1 mg/mL formulation): 91.5 ± 25.1 L
COc1ccc2c(c1)CN(C(=O)CCN1CCC(Cc3ccccc3)CC1)CC[S@@+]2[O-] — QT interval (telemetry; conscious male beagle dogs; intravenous, 8 mg/kg, 0.5 h): 179 ± 33 ms
CC(C)[C@@H](CS(=O)(=O)C(C)C)N1C(=O)[C@@](C)(CC(=O)O)C[C@H](c2cccc(Cl)c2)[C@H]1c1ccc(Cl)cc1 — AUC(0-inf) (FVB mice Abcb1a/b Abcg2 knockout, brain; intravenous, 20 mg/kg): 7990 ± 248 ng·h/mL
O=C(C[n+]1cc(-c2ccc(Cl)cc2)n2c1CCC2)Nc1ccc(Cl)c(Cl)c1 — maximum haemolysis (sheep erythrocytes; 1 h, pH 7.5): 15.3%
S=C(S)N1CCCC1 — EC50 (Toxoplasma gondii; parasite growth; HFF, bradyzoite, alkaline-induced): 622 µM
CC(C)n1c(Nc2cccnc2)nc2cnc(Nc3ccc(N4CCN(C)CC4)cc3)nc21 — adverse event incidence (measured: Rash; healthy male subjects; oral, 100 mg, added: gemfibrozil): 7.1%
O=C(O)CNC(=O)c1ncc(-c2cccc(Cl)c2)cc1O — pKa (basic): < 2
Cc1cc([C@H]2C[C@H]3[C@@H](CF)SC(N)=N[C@@]3(c3ccc(F)cc3F)CO2)on1 — brain concentration (male 129/SVE mouse, brain; subcutaneous, 30 mg/kg, 1 h): 7340 nM
Cc1c2oc3c(C)ccc(C(=O)N[C@@H]4C(=O)N[C@H](C(C)C)C(=O)N5CCC[C@H]5C(=O)N(C)CC(=O)N(C)[C@@H](C(C)C)C(=O)O[C@@H]4C)c3nc-2c(C(=O)N[C@@H]2C(=O)N[C@H](C(C)C)C(=O)N3CCC[C@H]3C(=O)N(C)CC(=O)N(C)[C@@H](C(C)C)C(=O)O[C@@H]2C)c(N)c1=O — maximum plasma concentration (LC-MS; children with cancer, plasma; dose not given, 6 h): 9.1 µg/L
O=C(O)CCC(=O)O.[2H]C([2H])([2H])Oc1cc(C)c2[nH]ccc2c1CN1CC[C@@H](C2CC2)C[C@H]1c1ccc(C(=O)O)cc1 — subjects with elevated ALT TEAE (multiple ascending dose; healthy Chinese subjects; 100 mg twice daily): 12.5%
Cc1c(-c2ccc(N3CCc4cccc(C(=O)Nc5nc6ccccc6s5)c4C3)nc2C(=O)O)cnn1CC12CC3(C)CC(C)(C1)CC(OCCNCC[C@H](O)CO)(C3)C2 — plasma concentration (anaesthetized male beagle dog; iv infusion, 0.1 mg/kg/min, 105 min): < 4 ng/mL
c1ccc(-c2nc(N3CCC(c4ccccn4)C3)c3ccccc3n2)nc1 (centres unmarked) — AUC(0-inf) (female Balb/c mice, plasma; intravenous, 2 mg/kg, mean, added: ABT 2 h prior): 7110 ng·h/mL
O=C1Cc2cc(CCN3CCN(c4nsc5ccccc45)CC3)c(Cl)cc2N1 — mean blood pressure (male Hartley guinea pigs, anaesthetized; intravenous, 0.1 mg/kg over 10 min, after infusion): 31 ± 0.6 mmHg
O=C(O[C@]12C[C@H]3C[C@H](C[C@H](C3)C1)C2)c1ccc(NCc2cc(O)ccc2O)cc1 — EC50 (Toxoplasma gondii; parasite growth; HFF, bradyzoite, alkaline-induced): 7.17 µM
COc1cc(N)c(Cl)cc1C(=O)NC1CCN(CCCOc2ccc(F)cc2)CC1OC (centres unmarked) — mean blood pressure (male Hartley guinea pigs, anaesthetized; intravenous, 0.1 mg/kg group, baseline before infusion): 33 ± 0.2 mmHg
N#Cc1ccc2c(c1)[C@H]1CCCN(C(=O)c3ccc4[nH]cnc4c3)[C@H]1C2 — DHEA-S level (human, female; 160 mg, day 7): 4.4 µmol/L
N=C(N)NC(=O)c1nc(Cl)c(NCc2cc(Cl)cc(Cl)c2)nc1N — pKa: 8.69
CC[C@H](C)[C@H](NC(=O)[C@H](C)N)C(=O)N[C@@H](CCCCN)C(=O)N[C@@H](C)C(=O)N[C@H](C(=O)N[C@@H](C)C(=O)N[C@@H](CCCCN)C(=O)N[C@@H](C)C(=O)N[C@@H](C)C(=O)NCC(N)=O)[C@@H](C)CC — mean residue ellipticity (circular dichroism at 222 nm; 30% TFE; 100 µM): -1630 deg cm2/dmol

For quick reference, copied from above:
c1ccc(-c2nc(N3CCC(c4ccccn4)C3)c3ccccc3n2)nc1 (centres unmarked) — AUC(0-inf) (female Balb/c mice, plasma; intravenous, 2 mg/kg, mean, added: ABT 2 h prior): 7110 ng·h/mL
O=C(O)CNC(=O)c1ncc(-c2cccc(Cl)c2)cc1O — pKa (basic): < 2
COc1ccc2c(c1)CN(C(=O)CCN1CCC(Cc3ccccc3)CC1)CC[S@@+]2[O-] — QT interval (telemetry; conscious male beagle dogs; intravenous, 8 mg/kg, 0.5 h): 179 ± 33 ms
